Published values gathered from unrelated publications.
Each numbered part is a random draw from the data of one study; scales do not carry over between parts. Positions count from the first letter of the parent shown.

Sample 1
Target: ABI1, truncated, D143A, DHFR fusion (Arabidopsis thaliana)
Technique: DHFR PCA, deep sequencing
Sample: yeast
Setting: methotrexate growth selection, single substitutions
Added: (+)-ABA 200 µM
Relative to: wild-type fitted maximum
Direction: higher = stronger binding
Starting sequence: PYL1, truncated, DHFR fusion (Arabidopsis thaliana); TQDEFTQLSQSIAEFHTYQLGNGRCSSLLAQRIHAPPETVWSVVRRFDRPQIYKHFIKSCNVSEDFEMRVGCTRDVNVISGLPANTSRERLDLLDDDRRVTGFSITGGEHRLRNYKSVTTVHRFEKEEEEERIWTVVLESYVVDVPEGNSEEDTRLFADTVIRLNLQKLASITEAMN; partner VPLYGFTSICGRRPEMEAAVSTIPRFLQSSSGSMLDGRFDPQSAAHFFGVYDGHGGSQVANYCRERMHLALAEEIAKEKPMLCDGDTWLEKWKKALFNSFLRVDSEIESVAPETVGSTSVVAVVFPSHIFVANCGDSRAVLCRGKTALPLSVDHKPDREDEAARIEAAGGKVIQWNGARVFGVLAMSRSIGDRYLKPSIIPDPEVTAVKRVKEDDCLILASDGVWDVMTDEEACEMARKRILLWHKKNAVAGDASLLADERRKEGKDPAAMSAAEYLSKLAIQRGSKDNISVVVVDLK
| Change | relative binding score [%] |
| --- | --- |
| Q10M | 92.1 |
| L164S | 99.7 |
| S117P | 12.6 |
| L28E | -10.4 |
| L29Y | 53.2 |
| V145C | 86.5 |
| A30Q | 98.7 |
| E67Y | 99.3 |
| V70K | 96.2 |
| D153G | 30.4 |
| S9M | 85.6 |
| A13Q | 105 |
| K116D | -2.58 |
| Q10F | 89.7 |

Sample 2
Target: CCNB1, cyclin fold, Cln2 fusion (human)
Technique: yeast growth competition, sequencing
Sample: yeast
Setting: weak parent motif
Relative to: not given
Direction: higher = stronger binding
Starting sequence: CDKN1B docking peptide (human); PSACRNLFGPVDH
| Change | normalised enrichment score |
| --- | --- |
| PKACRNLFGPVDH [S2K] | 1.14 |
| PSACRNLFTPVDH [G9T] | 0.61 |
| CSACRNLFGPVDH [P1C] | 0.0177 |
| PSACRVLFGPVDH [N6V] | 0.891 |
| PSACRNLDGPVDH [F8D] | 0.205 |
| PSANRNLFGPVDH [C4N] | 0.209 |
| PSACRNLFQPVDH [G9Q] | 0.561 |
| PSACRPLFGPVDH [N6P] | -0.514 |
| PSACRNLFGLVDH [P10L] | 0.621 |
| PHACRNLFGPVDH [S2H] | 0.38 |

Sample 3
Target: Prothrombin, mature alpha-thrombin (F2, Homo sapiens, UniProt P00734)
Technique: aptamer microarray, sandwich
Molecule type: DNA with 2'F-ANA
Sample: in vitro
Concentration: 200 nM
Setting: whole 15-mer aptamer, many near background
Added: Cy3 exosite-II aptamer, 400 nM
Direction: higher = stronger binding
Oligonucleotide: GGTTGGTGTGGTTGG
| Modification | mean fluorescence intensity |
| --- | --- |
| 2'F-ANA at 3 4 6 9 11 12 | 766 a.u. |
| 2'F-ANA at 2 4 5 7 9 12 14 15 | 48.9 a.u. |
| 2'F-ANA at 2 3 4 7 9 12 13 14 15 | 299 a.u. |
| 2'F-ANA at 2 3 4 7 9 11 12 13 14 | 266 a.u. |
| 2'F-ANA at 1 2 6 8 10 15 | 55.5 a.u. |
| 2'F-ANA at 3 4 5 7 9 10 11 13 15 | 115 a.u. |

Sample 4
Target: RING finger protein unkempt homolog, zinc fingers 1-6, GST-SBP tag (UNK, Homo sapiens, UniProt Q9C0B0, residues 30-357)
Sequence of UniProt Q9C0B0 (30-357, looked up): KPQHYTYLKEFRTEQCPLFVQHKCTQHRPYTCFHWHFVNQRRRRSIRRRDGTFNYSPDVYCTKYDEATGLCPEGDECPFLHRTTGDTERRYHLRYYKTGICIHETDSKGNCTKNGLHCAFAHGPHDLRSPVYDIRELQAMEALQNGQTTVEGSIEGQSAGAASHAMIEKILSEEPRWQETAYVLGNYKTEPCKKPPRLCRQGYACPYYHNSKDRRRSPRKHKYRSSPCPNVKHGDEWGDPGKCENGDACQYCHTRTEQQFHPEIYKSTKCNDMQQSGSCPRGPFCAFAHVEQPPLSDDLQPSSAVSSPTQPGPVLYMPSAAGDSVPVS
Technique: RNA Bind-n-Seq
Molecule type: RNA
Sample: in vitro
Concentration: not given
Setting: RNA with constant flanks, human-mouse chimeric sites, ends assumed
Relative to: input RNA pool
Direction: higher = stronger binding
All sequences stand within: GGGAGUUCUACAGUCCGACGAUC … CAACAGAGGAUUGAGCAUCA
| Oligonucleotide | bound/input enrichment |
| --- | --- |
| AAAGCCCAAGUAUUUUGAAAAAACUCGAACAGAUUUGACAAGGGUAGCCAGCUUGGAGUCUAGCAACUUUGCCAAUGGUUUACCAAUUUUGGGGGCUGUUUUUCUUUUCUUCUUUCAAAU | 0.36 ratio |
| CUGGCACUCUAUCAGAUAGAUUACUUUUUUAAUGUAGAUGUAAUUUUAAAAAUGAAUGGCUAGUUUACACGUUUAACUAGGGUUUUACUAUAUAUGUGUACAUAUGUAUAUAUAUAUAUA | 22.7 ratio |
| GCUGAAAAUGAAGAAGAGGCAGCUGAUGUCUGGUACAACCUGGGGCACAUAGCUGUGGGAAUAGGAGAUACAAACUUGGCCCACCAAUGCUUCAGGCUGGCCCUGGUCAACAACAACCAC | 0.283 ratio |
| UAAGUUAUUUUGUACAGCUUUGUAAAUUCUUAACAUUAAUUUGUAAACAUGUUUAUUUUGUUUGGGUAAUUUGGUUCAUACAUGGCCUAGCUAAGGUAAUGAACAUCUUUUUCAGUAAUU | 0.329 ratio |
| GGGUGGGUGGUCAUUGCCGUUUGAGCUGCUGAUUUUCAUGAGUCGCCUUCAAAACUCUCGUGUAGGGUUGACAAUGUGGGGGGGUGGGGGAUCCAGCUUAUUCUUUUAUUUUCAAGUCCA | 0.294 ratio |
| AAAGAACUACUGAGGCAAGGCAGCAAAUUUAGGAGAGACAUUUCAACACUAUUAAUAGAGUUAGGAUUCCAAAUUAAAAAGAAAACUAAGACAUUAUACAUCAACAAAGCCAAUAUCUGG | 10 ratio |
